Measurements pooled from the literature.
Target: Fibroblast growth factor receptor 4 (FGFR4, Homo sapiens, UniProt P22455)

O=C=[N][Ru-4]123([n]4c5ccc(O)cc5c5c6c(c7cc(F)c[n+]1c7c54)C(=O)NC6=O)[S+]1CC[S+]2CC[S+]3CC1 (stereo not shown) has a remaining activity of 98% (enzyme activity; 100 nM, human enzyme, with: 10 µM ATP; reference: untreated).
For C=CC(=O)N1CCc2ccc(-n3c(=O)ccc4cnc5ccc(-c6cnn(C)c6)cc5c43)cc21, the remaining binding was 95% (KINOMEscan; 1 µM; reference: DMSO control).
O=C(Nc1ccc(Oc2ncnc3[nH]cc(-c4ccccc4)c23)c(F)c1)c1c2n(n(-c3cc(F)ccc3F)c1=O)CCCC2 has an inhibition of -3% (enzyme activity, inhibitor; 0.5 µM).
With COc1c(Cl)cccc1Nc1c(-c2ccncc2C#C[C@@]2(C)CCCN2C(=O)/C=C/CN(C)C)[nH]c2c1C(=O)NCC2 the remaining binding was 98% (cell-free assay, competition with immobilised ligand; 3 µM).
The remaining activity of COc1c(OCCCN2CCOCC2)ccc2c1N=C(NC(=O)c1cnc(N)nc1)N1CCN=C21 is reported as 94% (kinase activity, inhibitor; 1 µM; reference: untreated control).
For CNC(=O)C1CCN(c2cc(C)c(F)cc2NC(=O)c2ccc(-c3cc(O)ccc3C)c(C)c2)CC1, the remaining binding was 100% (binding, competition with immobilised ligand; 1 µM).
COc1ccc(C(=O)/C=C/c2ccccc2-c2c[nH]c3ccc(C#N)cc23)c(O)c1 gave an inhibition of 8% (enzyme activity, inhibitor; 20 µM).
With C=CC(=O)N1CCCC(n2c(=O)c3ncccc3n(Cc3ccc(Oc4ccccc4)cc3)c2=O)C1 (stereo not shown) the remaining binding was 100% (cell-free assay, competition with immobilised ligand; 1 µM).
With NC(=O)C[C@H]1CCc2sc3ncnc(O[C@H]4CC[C@H](N5CCOCC5)CC4)c3c21 the inhibition was 10% (enzyme activity, inhibitor; 10 µM).
CN1CCN(Cc2ccc(-c3ccc(CO[C@H]4CCC[C@@H]4NC(=O)c4cc(-c5cnn(C)c5)cnc4N)cc3)cc2)CC1 has an inhibition of 8% (enzyme activity, inhibitor; 0.1 µM).
For Cc1ccc(-c2c(/C=C(\C#N)C(=O)NC(C)C)n(CCCO)c3ncnc(N)c23)cc1, the remaining binding was 99% (cell-free assay, competition with immobilised ligand; 1 µM).
For COc1ccc(NC(=O)Nc2ccc3c(c2)C(=O)N(C(C)CO)CC(C)C(CN(C)Cc2ccc4c(c2)OCO4)O3)cc1 (stereo not shown), the remaining activity was 107% (kinase activity; 0.03 µM; reference: control).
Cc1[nH]nc2c1N=C(c1ccccc1Cl)c1cnc(N3CCOCC3)cc1N2 has an inhibition of 69.8% (enzyme activity, inhibitor; 0.5 µM).
The inhibition of C=CC(=O)Nc1cccc(-c2cnc3[nH]cc(C(=O)NC(C)(C)C)c3n2)c1 is reported as 10% (enzyme activity, inhibitor; 0.1 µM).
Cc1cccc(O[C@H]2CCC[C@@H](C(C)CNCc3ccncc3)C2)c1 (relative stereo) has an inhibition of 0% (cell-free assay; 10 µM).
Nc1ncc2c(n1)-c1c([nH]c3ccc(C4=CCOCC4)cc13)CCC2 has a remaining binding of 100% (binding, competition with immobilised ligand; 1 µM).
